{"data": "Experimental data from different studies", "target": "Dual specificity mitogen-activated protein kinase kinase 5 (MAP2K5, Homo sapiens, UniProt Q13163)", "note": "Each line is one published result; not all experiments were run side by side. Values joined by “and” are separate records of one study, mostly repeats; a detail may differ."}
{"Structure (SMILES)": "Nc1ncc(-c2cc(-c3cnn(CC(F)(F)F)c3)ncc2F)nc1C(=O)NC1CNCC(F)C1 (stereo not drawn)", "test": "enzyme activity", "conditions": "1 µM", "scale": "relative to: DMSO control", "endpoint": "remaining activity", "value": "85.3%"}
{"Structure (SMILES)": "Cc1cnc2nc1Nc1cccc(c1)COC/C=C/COCc1cc(ccc1OCCN1CCOCC1)N2", "test": "binding, competition with immobilised ligand", "conditions": "0.1 µM", "endpoint": "remaining binding", "value": "82%"}
{"Structure (SMILES)": "CCN1CCN(Cc2ccc(C(=O)Nc3ccc(C)c(NCc4cnc5[nH]ccc5c4OC)c3)cc2C(F)(F)F)CC1", "test": "binding, competition with immobilised ligand", "conditions": "1 µM", "endpoint": "remaining binding", "value": "1.3%"}
{"Structure (SMILES)": "COc1cc(Nc2nc(C)cc(-c3cnn4nc(OC)ccc34)n2)cc(C(F)(F)F)c1", "test": "inhibitor", "conditions": "1 µM, MEK5", "scale": "relative to: control", "endpoint": "remaining activity", "value": "85%"}
{"Structure (SMILES)": "Cc1ccc(-c2c(/C=C(\\C#N)C(=O)NC(C)C)n(CCCO)c3ncnc(N)c23)cc1", "test": "cell-free assay, competition with immobilised ligand", "conditions": "1 µM", "endpoint": "remaining binding", "value": "21%"}
{"Structure (SMILES)": "CNC(=O)C1CCN(c2cc(C)c(F)cc2NC(=O)c2ccc(-c3cc(O)ccc3C)c(C)c2)CC1", "test": "binding, competition with immobilised ligand", "conditions": "1 µM", "endpoint": "remaining binding", "value": "80%"}
{"Structure (SMILES)": "COc1c(Cl)cccc1Nc1c(-c2ccncc2C#C[C@@]2(C)CCCN2C(=O)/C=C/CN(C)C)[nH]c2c1C(=O)NCC2", "test": "binding, competition with immobilised ligand", "conditions": "3 µM", "endpoint": "remaining binding", "value": "73%"}
{"Structure (SMILES)": "CC(C)=CC1OC(C)(C)C2C=C3C(=O)C(Cl)=CC(O)C3C3C(O)C4OC4C(=O)C132 (stereo not drawn)", "test": "cell-free assay, competition with immobilised ligand", "conditions": "10 µM", "endpoint": "remaining binding", "value": "70%"}
{"Structure (SMILES)": "CN1CCN(Cc2ccc(-c3ccc(CO[C@H]4CCC[C@@H]4NC(=O)c4cc(-c5cnn(C)c5)cnc4N)cc3)cc2)CC1", "test": "enzyme activity, inhibitor", "conditions": "0.1 µM", "endpoint": "inhibition", "value": "-3%"}
{"Structure (SMILES)": "C=CC(=O)N1CCc2ccc(-n3c(=O)ccc4cnc5ccc(-c6cnn(C)c6)cc5c43)cc21", "test": "KINOMEscan", "conditions": "1 µM", "scale": "relative to: DMSO control", "endpoint": "remaining binding", "value": "85%"}
{"Structure (SMILES)": "N[C@H]1CC[C@H](Nc2nccc(-c3cccnc3Oc3ccc(NC(=O)NC4CC4)c4ccccc34)n2)CC1", "test": "kinobead competition pulldown", "system": "HEK293/HCT116 lysate mixture", "conditions": "10 µM, 1 h, 4 °C", "scale": "lower = stronger competition", "endpoint": "log2 LFQ intensity", "value": "23.3 and 23.6"}
{"Structure (SMILES)": "CNC1C[S+]2CC[S+]3CC[S+](C1)[Ru-4]321([N]=C=S)[n]2c3ccc(OC)cc3c3c4c(c5cc(F)c[n+]1c5c32)C(=O)NC4=O (stereo not drawn)", "test": "KinomeScan", "conditions": "0.1 µM", "scale": "relative to: untreated", "endpoint": "remaining binding", "value": "78%"}
{"Structure (SMILES)": "CS(=O)(=O)Nc1cccc(-c2csc3cnc(Nc4ccc(N5CCN(CCCCCOc6cccc7c6C(=O)N(C6CCC(=O)NC6=O)C7=O)CC5)cc4)nc23)c1 (stereo not drawn)", "test": "probe labelling, inhibitor, KiNativ chemoproteomics", "system": "MOLT-4", "conditions": "1 µM", "endpoint": "inhibition", "value": "28.6%"}
{"Structure (SMILES)": "C=CC(=O)N1CCCC(n2c(=O)c3ncccc3n(Cc3ccc(Oc4ccccc4)cc3)c2=O)C1 (stereo not drawn)", "test": "cell-free assay, competition with immobilised ligand", "conditions": "1 µM", "endpoint": "remaining binding", "value": "55%"}
{"Structure (SMILES)": "Nc1ncc2c(n1)-c1c([nH]c3ccc(C4=CCOCC4)cc13)CCC2", "test": "binding, competition with immobilised ligand", "conditions": "1 µM", "endpoint": "remaining binding", "value": "85%"}
{"Structure (SMILES)": "COc1cc(Nc2nccc(-c3cnn4nc(OC)ccc34)n2)cc(C(F)(F)F)c1", "test": "binding, competition with immobilised ligand", "conditions": "1 µM", "endpoint": "remaining binding", "value": "100%"}
{"Structure (SMILES)": "C=CC(=O)N1Cc2nc(-c3cc(-c4cc(Cl)cnc4Cl)c(F)cc3F)n(-c3ccncn3)c2C1", "test": "cell-free assay, inhibitor", "conditions": "1 µM", "endpoint": "inhibition", "value": "-0.5%"}
{"Structure (SMILES)": "Nc1ncc2c(n1)-c1c([nH]c3ccc(C#CC4CC4)cc13)CCCC2", "test": "enzyme activity, inhibitor, TR-FRET", "conditions": "10 µM", "endpoint": "inhibition", "value": "57%"}
{"note": "Some of these lines once more:"}
{"Structure (SMILES)": "COc1cc(Nc2nccc(-c3cnn4nc(OC)ccc34)n2)cc(C(F)(F)F)c1", "test": "binding, competition with immobilised ligand", "conditions": "1 µM", "endpoint": "remaining binding", "value": "100%"}
{"Structure (SMILES)": "COc1cc(Nc2nc(C)cc(-c3cnn4nc(OC)ccc34)n2)cc(C(F)(F)F)c1", "test": "inhibitor", "conditions": "1 µM, MEK5", "scale": "relative to: control", "endpoint": "remaining activity", "value": "85%"}
{"Structure (SMILES)": "C=CC(=O)N1Cc2nc(-c3cc(-c4cc(Cl)cnc4Cl)c(F)cc3F)n(-c3ccncn3)c2C1", "test": "cell-free assay, inhibitor", "conditions": "1 µM", "endpoint": "inhibition", "value": "-0.5%"}
